Assay results collected from several papers.
Lines come from different studies, so protocols differ. Numbers after ± are the reported error.
Cell line: MCF7

The IC50 of `COc1c(OC(C)=O)cc2oc3cc(OC(C)=O)c(CC=C(C)C)c(O)c3c(=O)c2c1CC=C(C)C` is reported as 16.6 µM (cell growth or viability; 48 h).
`Nn1c(SCC(=O)N2CCC(=C3c4ncccc4CCc4cc(Cl)cc(Br)c43)CC2)nnc1-c1ccccc1` has an IC50 of 27 µM (cell growth or viability, SRB).
With `C=CC(OC(C)=O)c1ccc(OC(C)=O)c(OC)c1` (stereo not drawn) the IC50 was 25.2 µM (cell growth or viability, MTT; 24 h).
With `COc1ccc2cc3[n+](cc2c1OCc1cn(Cc2ccc(F)cc2Br)nn1)CCc1cc2c(cc1-3)OCO2` the IC50 was 59.6 µM (cell growth or viability, MTT).
`CC(C)(C)c1cc2c(O)c(c1)Cc1cc(C(C)(C)C)cc(c1OCC(=O)NCc1cccnc1)Cc1cc(C(C)(C)C)cc(c1O)Cc1cc(C(C)(C)C)cc(c1OCC(=O)NCc1cccnc1)COC2` has an IC50 of 4.1 µM (cell growth or viability, MTT; 72 h).
For `NS(=O)(=O)c1ccc(/N=N/c2ccc(O)c(C=O)c2)cc1`, the IC50 was 8.44 µM (cell growth or viability, MTT; 48 h).
`CSC(=S)N/N=C(\C)c1ccc(S(=O)(=O)N2CCC(C)CC2)cc1` gave an IC50 of 11.2 µM (cell growth or viability, MTT).
The IC50 of `C=C(C)[C@H]1CC[C@@]2(C)CC[C@]3(C)C[C@H]4[C@@H](C)CC[C@H]4/C(C)=C\C[C@H]3[C@H]12` is reported as over 500 µM (cell growth or viability, MTT; 72 h).
With `c1ccc(-c2nc(-c3cccnc3)[nH]c2-c2ccccc2)cc1` the IC50 was over 100 µM (cell growth or viability, SRB; 24 h).
`CCCCCCCCCCCCCCCOC(=O)/C=C/c1cc(O)c(O)c(OC)c1` gave an IC50 of 1.2 ± 0.2 µg/mL (cell viability, MTT; 48 h, serum-free medium).
For `Oc1ccc2c(c1)[O][Pt-2]1([Cl])[N+](=C2)c2ccccc2[NH+]1c1ccccc1` (stereo not drawn), the IC50 was 66.9 µM (cell growth or viability, MTT).
The IC50 of `COc1ccc(/C(=C(/CCn2cc(CN3C(=O)C(=O)c4ccccc43)nn2)c2ccccc2)c2ccccc2)cc1` is reported as over 100 µM (cell growth or viability, MTT).
`COc1ccc2cc3[n+](cc2c1OCc1cn(Cc2ccc(Cl)cc2Cl)nn1)CCc1cc2c(cc1-3)OCO2` gave an IC50 of 28.2 µM (cell growth or viability, MTT).
The IC50 of `N=C(N)NCCC[C@H](N)C(=O)NC(CC(=O)N[C@@H](Cc1c[nH]c2ccccc12)C(=O)O)c1ccc2ccccc2c1` (stereo partly drawn) is reported as over 100 µM (cell growth or viability, ATP luminescence; 72 h).
For `Cc1cc(=O)[nH]c2c(/N=N/c3ccccc3)c(O)c(/N=N/c3ccccc3)cc12`, the IC50 was 19.8 µg/mL (cell growth or viability, MTT).
For `CCNC(=S)N/N=C(\C)c1c(O)c2ccccc2oc1=O`, the IC50 was 22.7 µM (cell growth or viability, MTT; 48 h).
For `C=CC12COC(=O)C(=C)C1C1OC(=O)C(C)C1C(OC(=O)C(=C)CO)C2` (stereo not drawn), the IC50 was 4.9 µM (cell growth or viability, MTT; 72 h).
The IC50 of `C[C@@H]1CC[C@@H]([C@](O)(CNCc2ccccc2F)COCc2ccccc2)[C@H](OCc2ccccc2)C1` is reported as 1.8 µM (cell growth or viability, MTT; 72 h).
`CCOC(=O)c1nn(-c2ccccc2)c2nc3nc(-c4ccccc4)cc(-c4ccc5ccccc5n4)c3c(=O)n12` has an IC50 of 13.5 µM (cell growth or viability, MTT; 48 h).
For `CC1=C2[O][Ru-]([Cl])[O+]=C2C=CN1CCCN1C=CC2=[O+][Ru-]([Cl])[O]C2=C1C.Cc1ccc(C(C)C)cc1.Cc1ccc(C(C)C)cc1`, the IC50 was over 20 µM (cell growth or viability, crystal violet; 96 h).
`CCC1=C(CC)C2=[N+]3C1=Cc1c(CC)c(CC)c4[n]1[Ir-3]31([Cl])([C]#[O+])[n]3c(c(CC)c(CC)c3=CC3=[N+]1C(=C4)C(CC)=C3CC)=C2` has an IC50 of over 50 µM (cell growth or viability, MTT; 72 h).
`CCCCCCCCn1c(-c2cccnc2)nc(-c2ccccc2)c1-c1ccccc1` gave an IC50 of 82.6 µM (cell growth or viability, SRB; 24 h).
With `Cc1cc(-c2ccccc2)c2ccc3c(-c4ccccc4)cc(C)[n+]4c3c2[n+]1[Re-2]4(=[C]=O)(=[C]=O)(=[C]=O)[O]S(=O)(=O)c1cccc2ccccc12` the IC50 was 0.849 µM (cell growth or viability, resazurin; 72 h).
With `COc1ccc(NC(=O)N/N=C2\CC3(CCN(C)CC3)Oc3ccccc32)cc1` the IC50 was 6.67 µM (cell growth or viability, MTT; 48 h).
`Cc1c(C)c(C)[c-](C)c1C.OCc1ccnc(-c2[c-]cccc2)c1.[Cl-].[Ir+3]` has an IC50 of 47 ± 2 µM (SRB; 24 h, 72 h recovery).
For `COc1ccc(NC(=O)CCc2nc3cc(Cl)ccc3[nH]c2=O)cc1`, the IC50 was 4.61 µM (cell growth or viability, MTT).
`COc1c(O)cc2oc3c(Cl)c(O)c(CC=C(C)C)c(O)c3c(=O)c2c1CC=C(C)C` has an IC50 of over 40 µM (cell growth or viability; 48 h).
For `CCCCCCCCCCCCn1c(-c2cccnc2)nc(-c2ccc(C)cc2)c1-c1ccc(C)cc1`, the IC50 was over 100 µM (cell growth or viability, SRB; 24 h).
`CN1CCCC1CCO/N=C1/C=C2CCC3C(CC[C@]4(C)/C(=C/c5ccccn5)CCC34)[C@@]2(C)CC1` (stereo partly drawn) has an IC50 of 7 µM (cell growth or viability, MTT; 72 h).
`Brc1ccc2nc3c4ccc[n+]5c4c4c(ccc[n+]4[Ru-4]546([n+]5ccccc5-c5cccc[n+]54)[n+]4ccccc4-c4cccc[n+]46)c3nc2c1.[O-][Cl+3]([O-])([O-])O.[O-][Cl+3]([O-])([O-])O` has an IC50 of over 100 µM (cell growth or viability, MTT; 72 h).
With `CC(=O)N[C@H](Cc1ccccc1)C(=O)N[C@@H](CC(=O)N[C@H](CCCNC(=N)N)C(N)=O)c1ccc2ccccc2c1` the IC50 was over 50 µM (cell growth or viability, ATP luminescence; 72 h).
The IC50 of `CC(=O)[O][Pt]([Cl])([Cl])[O]C(C)=O.N.N` is reported as 39.5 ± 4.45 µM (cytotoxicity; 72 h).
With `CC(C)c1cccc(C(C)C)c1-n1ccn(-c2c(C(C)C)cccc2C(C)C)c1=[Se].[Cl][Ag]` the IC50 was 3.8 µM (cell growth or viability, MTT; 72 h).
`O=[N+]([O-])c1cnccc1N1c2cccnc2Sc2cccnc21` gave an IC50 of under 5 µg/mL (cell growth or viability, WST-1; 72 h).
`COC(C)(C)/C=C/C[C@@](C)(O)[C@H]1CC[C@]2(C)[C@@H]1CC[C@@H]1[C@@]3(C)CCC(=O)C(C)(C)[C@@H]3CC[C@]12C` gave an IC50 of 22.2 µM (cell growth or viability, SRB).
With `O=[N+]([O-])[O-].[NH3+][Pt-2]1([NH3+])[O]C(c2ccccc2)=CC(c2ccccc2)=[O+]1` (stereo not drawn) the IC50 was 3.1 µM (cell growth or viability, MTT).
The IC50 of `CSc1nc(Nc2ccc(C(=O)N/N=C/c3ccc(Cl)cc3)cc2)c(C#N)c(-c2ccccc2)n1` is reported as 15.3 µM (cell growth or viability, MTT; 48 h).
`Cc1c(C)c(C)c(C[n+]2cn(CC(C)(C)c3ccccc3)c3ccccc32)c(C)c1C` has an IC50 of 28 µM (cell growth or viability, MTT; 48 h).
The IC50 of `CC(C)Cc1ccc(C(C)C(=O)[O][Re-2]2(=[C]=O)(=[C]=O)(=[C]=O)[n+]3ccc(-c4ccccc4)c4ccc5c(-c6ccccc6)cc[n+]2c5c43)cc1` (racemic) is reported as 0.958 µM (cell growth or viability, resazurin; 72 h).
With `[Cl][Pd-2]1([Cl])[N+](=P(c2ccccc2)(c2ccccc2)C2C=CC=C2)Cc2cccc[n+]21.[Cl][Pd-2]1([Cl])[N+](=P(c2ccccc2)(c2ccccc2)C2C=CC=C2)Cc2cccc[n+]21.[Fe+2]` the IC50 was 3 µM (cell growth or viability, MTT; 74 h).
The IC50 of `CC/C(=C(\c1ccccc1)c1ccc(OCCN(C)CCCCC(=O)NCCCOc2ccc3[nH]cc(CCNC(C)=O)c3c2)cc1)c1ccccc1` is reported as 2.8 µM (cell survival, MTT; day 9, dosed days 2, 4, 7).
`CC1=NN(C(N)=S)C(c2ccccc2)C1` (stereo not drawn) has an IC50 of 5.8 µM (cell growth or viability, LDH).
The IC50 of `N=C(N)NCCC[C@@H]1NC(=O)[C@H](CCCCN)NC(=O)[C@@H](Cc2ccc(O)cc2)NC(=O)[C@H](CC(=O)O)NC(=O)CNC1=O` is reported as over 100 µM (cytotoxicity, MTT; 48 h).
With `N#Cc1cc(C(=O)c2ccc3ccccc3c2O)c[nH]c1=O` the IC50 was 9.6 µM (cell growth or viability, MTT; 48 h).
The IC50 of `CC(C)=CCC1=C([O-])C(=O)c2ccccc2C1=O.CC(C)=CCC1=C([O-])C(=O)c2ccccc2C1=O.[Cu+2].c1ccc(-c2ccnc3c2ccc2c(-c4ccccc4)ccnc23)cc1` is reported as 0.9 ± 0.3 µM (cell viability, MTT; 24 h).
`Cc1ccc(-c2noc(-c3cccs3)c2C(F)(F)F)cc1` gave an IC50 of 24.2 µM (cell growth or viability, MTT; 48 h).
For `CCCCCCCCCCCCCCOc1c(O)cc(C(=O)O[C@@H]2Cc3c(O)cc(O)cc3O[C@@H]2c2cc(O)c(O)c(O)c2)cc1O`, the IC50 was 41.7 µM (cell growth or viability, CCK-8; 24 h).
With `COc1cccc2c1C(=O)c1c(O)c3c(c(O)c1C2=O)CC(O)(C(=O)CO)CC3OC1CC(NC(=O)CCC2=C(C)C(=O)C=C(C(C)C)C2=O)C(O)C(C)O1` (stereo not drawn) the IC50 was about 2 µM (cell growth or viability, MTT; 72 h).
With `O=C(NCCCNc1n[n+]([O-])c2ccccc2[n+]1[O-])C(F)(F)F` the IC50 was 29.1 ± 13.5 µM (cytotoxicity, MTT; 10% FBS medium; 6 h + 18 h, hypoxia 3% O2).
With `COc1ccc(CNC[C@@](O)(COCc2ccc(OC)cc2)[C@@H]2CC[C@@H](C)C[C@H]2OCc2ccc(OC)cc2)cc1` the IC50 was 1.6 µM (cell growth or viability, MTT; 72 h).
`O=C(/C=C/c1ccc2c(c1)C(=O)N(CCCc1ccccc1)CC2)NO` gave an IC50 of 0.93 ± 0.317 µM (cell growth, SRB; 72 h).
With `C[S+](C)([O-])[Pt-2]([Cl])([Cl])[N+](=Cc1ccc[nH]1)Cc1ccccc1` the IC50 was 23.3 µg/mL (cell growth or viability, MTT; 24 h).
With `COc1cccc2cc(C(=O)NNC(N)=S)c(=O)oc12` the IC50 was 21.8 µM (cell growth or viability, SRB; 72 h).
`CCC(C(=O)O)C1CCC(C)C(C(C)C(O)C(C)C(=O)C(CC)C2OC3(C=CC(NCc4cn(CCCCSC(C)=O)nn4)C4(CCC(C)(C5CCC(O)(CC)C(C)O5)O4)O3)C(C)CC2C)O1` (stereo not drawn) has an IC50 of 3.02 µM (cell growth or viability, resazurin; 72 h).
